Published values pooled from the literature.
Each line is one published result; not all experiments were run side by side. Numbers after ± are the reported error.
VKORC1: Vitamin K epoxide reductase complex subunit 1 (VKORC1, Homo sapiens, UniProt Q9BQB6)
UniProt Q9BQB6, sequence (whole entry, looked up): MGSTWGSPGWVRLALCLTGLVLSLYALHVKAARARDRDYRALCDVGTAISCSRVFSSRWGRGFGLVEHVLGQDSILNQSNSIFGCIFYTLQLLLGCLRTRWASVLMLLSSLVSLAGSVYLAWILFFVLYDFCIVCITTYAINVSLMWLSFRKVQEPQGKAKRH
DGKA: Diacylglycerol kinase alpha (DGKA, Homo sapiens, UniProt P23743)
HDAC11: Histone deacetylase 11 (HDAC11, Homo sapiens, UniProt Q96DB2)
UniProt Q96DB2, sequence (whole entry, looked up): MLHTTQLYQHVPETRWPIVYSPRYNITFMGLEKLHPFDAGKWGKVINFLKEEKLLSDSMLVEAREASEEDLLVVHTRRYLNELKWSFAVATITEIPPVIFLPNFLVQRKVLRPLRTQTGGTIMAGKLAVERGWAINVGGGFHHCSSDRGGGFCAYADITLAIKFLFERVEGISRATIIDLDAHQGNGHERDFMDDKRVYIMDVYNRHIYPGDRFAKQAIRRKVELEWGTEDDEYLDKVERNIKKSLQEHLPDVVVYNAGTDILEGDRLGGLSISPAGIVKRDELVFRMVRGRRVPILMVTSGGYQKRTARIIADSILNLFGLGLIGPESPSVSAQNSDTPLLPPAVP
SIRT5: NAD-dependent protein deacylase sirtuin-5, mitochondrial (SIRT5, Homo sapiens, UniProt Q9NXA8)
UniProt Q9NXA8, sequence (whole entry, looked up): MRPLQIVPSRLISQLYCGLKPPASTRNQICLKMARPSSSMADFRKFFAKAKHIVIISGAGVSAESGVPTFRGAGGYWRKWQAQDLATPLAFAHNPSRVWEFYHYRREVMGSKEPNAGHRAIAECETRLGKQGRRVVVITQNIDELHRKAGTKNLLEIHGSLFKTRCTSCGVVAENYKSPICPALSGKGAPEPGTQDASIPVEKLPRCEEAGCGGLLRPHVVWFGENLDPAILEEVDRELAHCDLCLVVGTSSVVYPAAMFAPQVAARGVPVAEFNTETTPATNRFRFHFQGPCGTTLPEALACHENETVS
Genome polyprotein NS2B-NS3 protease: Genome polyprotein, NS2B-NS3 protease (dengue virus type 2, UniProt P29990)
Gria2: Glutamate receptor 2 (Gria2, Rattus norvegicus, UniProt P19491)
UniProt P19491, sequence (whole entry, looked up): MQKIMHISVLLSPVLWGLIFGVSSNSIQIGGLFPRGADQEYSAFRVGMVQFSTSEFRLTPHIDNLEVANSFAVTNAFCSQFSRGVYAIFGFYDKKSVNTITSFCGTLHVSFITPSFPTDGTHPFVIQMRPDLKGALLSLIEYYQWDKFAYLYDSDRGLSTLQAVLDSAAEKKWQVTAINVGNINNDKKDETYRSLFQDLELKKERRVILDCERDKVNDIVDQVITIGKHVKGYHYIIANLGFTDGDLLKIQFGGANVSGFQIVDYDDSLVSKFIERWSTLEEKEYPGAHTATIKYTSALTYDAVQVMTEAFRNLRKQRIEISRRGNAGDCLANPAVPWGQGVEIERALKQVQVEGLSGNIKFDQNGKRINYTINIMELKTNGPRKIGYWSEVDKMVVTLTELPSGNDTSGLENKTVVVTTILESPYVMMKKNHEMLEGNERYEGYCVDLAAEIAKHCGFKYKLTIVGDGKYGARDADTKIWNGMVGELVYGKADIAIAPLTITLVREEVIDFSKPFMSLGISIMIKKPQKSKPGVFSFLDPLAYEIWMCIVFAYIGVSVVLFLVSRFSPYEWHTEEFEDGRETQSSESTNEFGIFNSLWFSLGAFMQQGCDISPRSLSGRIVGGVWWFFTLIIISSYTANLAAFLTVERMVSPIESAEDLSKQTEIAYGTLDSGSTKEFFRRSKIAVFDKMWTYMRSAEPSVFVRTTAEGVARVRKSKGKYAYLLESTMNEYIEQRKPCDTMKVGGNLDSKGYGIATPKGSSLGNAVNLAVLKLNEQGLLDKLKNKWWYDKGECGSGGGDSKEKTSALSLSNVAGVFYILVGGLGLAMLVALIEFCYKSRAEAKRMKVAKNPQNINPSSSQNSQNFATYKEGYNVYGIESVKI
Mc1r: Melanocyte-stimulating hormone receptor (Mc1r, Mus musculus, UniProt Q01727)
UniProt Q01727, sequence (whole entry, looked up): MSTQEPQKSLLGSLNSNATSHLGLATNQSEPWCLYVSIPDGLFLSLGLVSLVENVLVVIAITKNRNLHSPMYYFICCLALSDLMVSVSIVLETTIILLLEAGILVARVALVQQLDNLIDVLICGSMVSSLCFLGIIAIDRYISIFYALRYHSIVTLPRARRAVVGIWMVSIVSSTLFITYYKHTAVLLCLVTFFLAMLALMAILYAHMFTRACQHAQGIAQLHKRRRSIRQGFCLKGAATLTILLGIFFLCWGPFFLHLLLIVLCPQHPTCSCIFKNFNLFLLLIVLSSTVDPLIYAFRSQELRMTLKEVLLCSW
CDK4: Cyclin-dependent kinase 4 (CDK4, Homo sapiens, UniProt P11802)
UniProt P11802, sequence (whole entry, looked up): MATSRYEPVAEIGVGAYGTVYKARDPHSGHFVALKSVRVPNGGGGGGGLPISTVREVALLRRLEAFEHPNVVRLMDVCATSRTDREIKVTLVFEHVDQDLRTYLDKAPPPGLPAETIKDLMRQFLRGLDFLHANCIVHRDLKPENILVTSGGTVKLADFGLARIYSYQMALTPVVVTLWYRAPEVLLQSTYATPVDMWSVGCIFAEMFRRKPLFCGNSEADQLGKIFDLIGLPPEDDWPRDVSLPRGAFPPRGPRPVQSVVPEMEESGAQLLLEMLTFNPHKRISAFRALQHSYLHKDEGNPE
MARS2: Methionine--tRNA ligase, mitochondrial (MARS2, Homo sapiens, UniProt Q96GW9)
UniProt Q96GW9, sequence (whole entry, looked up): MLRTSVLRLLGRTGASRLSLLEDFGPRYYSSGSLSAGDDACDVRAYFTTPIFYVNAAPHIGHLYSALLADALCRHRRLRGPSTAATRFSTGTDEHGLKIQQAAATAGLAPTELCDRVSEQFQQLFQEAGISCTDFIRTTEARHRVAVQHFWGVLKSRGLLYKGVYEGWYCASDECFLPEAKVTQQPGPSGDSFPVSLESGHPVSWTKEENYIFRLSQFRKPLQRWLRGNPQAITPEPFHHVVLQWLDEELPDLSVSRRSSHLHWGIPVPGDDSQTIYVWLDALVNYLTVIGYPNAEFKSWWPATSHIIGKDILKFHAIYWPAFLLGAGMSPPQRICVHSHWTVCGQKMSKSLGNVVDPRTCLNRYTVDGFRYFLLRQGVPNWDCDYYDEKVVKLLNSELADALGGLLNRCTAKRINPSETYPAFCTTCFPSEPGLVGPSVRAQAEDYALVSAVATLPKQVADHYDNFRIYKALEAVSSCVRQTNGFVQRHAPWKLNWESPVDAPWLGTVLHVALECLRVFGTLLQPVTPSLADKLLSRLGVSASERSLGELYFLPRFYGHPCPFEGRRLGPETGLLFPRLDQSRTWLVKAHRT
DDR2: Discoidin domain-containing receptor 2 (DDR2, Homo sapiens, UniProt Q16832)
UniProt Q16832, sequence (whole entry, looked up): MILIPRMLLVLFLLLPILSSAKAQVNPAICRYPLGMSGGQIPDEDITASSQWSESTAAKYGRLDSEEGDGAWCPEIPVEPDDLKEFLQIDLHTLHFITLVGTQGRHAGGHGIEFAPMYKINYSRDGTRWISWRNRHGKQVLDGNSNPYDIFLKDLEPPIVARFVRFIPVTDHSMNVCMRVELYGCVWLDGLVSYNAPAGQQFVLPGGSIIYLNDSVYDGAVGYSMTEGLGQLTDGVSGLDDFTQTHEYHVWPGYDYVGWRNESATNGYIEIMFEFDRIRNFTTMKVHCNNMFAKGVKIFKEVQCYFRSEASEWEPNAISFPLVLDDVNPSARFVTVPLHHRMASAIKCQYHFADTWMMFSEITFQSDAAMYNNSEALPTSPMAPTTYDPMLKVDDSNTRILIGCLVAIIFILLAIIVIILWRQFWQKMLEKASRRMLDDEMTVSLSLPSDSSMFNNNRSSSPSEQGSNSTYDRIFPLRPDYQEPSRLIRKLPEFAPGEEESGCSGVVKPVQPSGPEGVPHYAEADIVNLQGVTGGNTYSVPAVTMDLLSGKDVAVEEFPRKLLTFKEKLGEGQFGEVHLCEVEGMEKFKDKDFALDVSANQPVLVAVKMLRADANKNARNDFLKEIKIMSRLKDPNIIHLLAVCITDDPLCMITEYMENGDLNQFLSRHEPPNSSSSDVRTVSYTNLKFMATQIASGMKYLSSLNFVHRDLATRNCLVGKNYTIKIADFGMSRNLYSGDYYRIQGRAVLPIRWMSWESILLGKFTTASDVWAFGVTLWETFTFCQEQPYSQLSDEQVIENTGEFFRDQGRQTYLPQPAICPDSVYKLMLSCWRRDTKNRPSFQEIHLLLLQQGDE
UniProt P07550, sequence (whole entry, unmodified, looked up): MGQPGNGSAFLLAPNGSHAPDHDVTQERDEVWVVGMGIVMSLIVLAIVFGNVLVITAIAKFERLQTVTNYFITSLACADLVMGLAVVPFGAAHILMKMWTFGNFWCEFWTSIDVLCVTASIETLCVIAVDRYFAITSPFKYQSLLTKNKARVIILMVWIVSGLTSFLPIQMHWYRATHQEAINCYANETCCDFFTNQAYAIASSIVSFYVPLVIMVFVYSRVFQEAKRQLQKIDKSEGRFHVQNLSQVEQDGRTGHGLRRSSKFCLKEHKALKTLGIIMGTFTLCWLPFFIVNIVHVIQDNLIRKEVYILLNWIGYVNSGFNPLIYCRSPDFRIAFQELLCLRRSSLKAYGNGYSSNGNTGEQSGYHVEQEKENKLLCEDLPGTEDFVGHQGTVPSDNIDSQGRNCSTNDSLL
UniProt P21728, sequence (whole entry, looked up): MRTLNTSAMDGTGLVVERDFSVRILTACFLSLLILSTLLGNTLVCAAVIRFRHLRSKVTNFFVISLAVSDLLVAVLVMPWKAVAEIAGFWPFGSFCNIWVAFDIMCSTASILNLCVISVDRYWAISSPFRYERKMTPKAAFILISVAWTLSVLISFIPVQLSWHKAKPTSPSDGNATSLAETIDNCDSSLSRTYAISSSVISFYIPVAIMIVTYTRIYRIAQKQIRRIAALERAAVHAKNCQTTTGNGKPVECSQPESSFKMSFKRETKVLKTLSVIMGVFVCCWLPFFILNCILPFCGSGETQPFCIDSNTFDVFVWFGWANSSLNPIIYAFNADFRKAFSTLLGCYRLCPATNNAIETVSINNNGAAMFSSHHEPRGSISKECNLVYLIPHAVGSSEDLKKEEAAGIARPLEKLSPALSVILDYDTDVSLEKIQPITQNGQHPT
UniProt P30968, sequence (whole entry, looked up): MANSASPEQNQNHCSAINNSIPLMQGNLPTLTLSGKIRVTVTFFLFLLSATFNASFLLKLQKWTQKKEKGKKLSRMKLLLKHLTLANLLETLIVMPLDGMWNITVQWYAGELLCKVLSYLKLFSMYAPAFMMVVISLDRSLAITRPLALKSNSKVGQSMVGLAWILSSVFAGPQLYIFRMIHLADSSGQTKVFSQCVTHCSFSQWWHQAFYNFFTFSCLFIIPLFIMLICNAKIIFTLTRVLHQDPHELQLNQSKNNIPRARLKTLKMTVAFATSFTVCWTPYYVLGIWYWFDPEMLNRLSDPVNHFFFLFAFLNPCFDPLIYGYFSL

CC(C)c1ccc(/C=C/C(=O)c2ccc(Br)s2)cc1
IC50 (MAOA (Homo sapiens, UniProt P21397); enzyme activity, inhibitor): 310 nM

C[C@H](Cn1nnc2ccccc21)NC(=O)c1cnn2cccnc12
IC50 (VKORC1; carboxylation, inhibitor, ELISA; HEK293 stably expressing; 24 h, with: vitamin K epoxide 5 µM): > 100000 nM

C[C@@H]1CN(Cc2ccc(S(=O)(=O)n3cnc(C4CC4)n3)cc2)[C@@H](C)CN1c1cc(=O)n(C)c2ccc(C#N)nc12
IC50 (DGKA; inhibitor, ADP-Glo; with: DAG micelles): 575 nM

CCCCCCCCCCCCCCN(O)C(=O)CCCCC[C@@H]1NC(=O)[C@H]([C@@H](C)CC)NC(=O)[C@H](Cc2ccccc2C(F)(F)F)NC(=O)CCSCc2cccc(n2)CSCCCNC1=O
IC50 (HDAC11; enzyme activity, inhibitor, fluorescence): 90 nM

Cc1nn(-c2cccc(N)c2)c(=O)c2cnc(Nc3ccc(N4CCNCC4)cc3)nc12
IC50 (FGFR4 (Homo sapiens, UniProt P22455); enzyme activity, inhibitor): > 10000 nM

O=C(CCC(=O)NC(CCCCNC(=S)NCCc1nnn[nH]1)C(=O)NC(Cc1c[nH]c2ccccc12)C(=O)NC1CCC1)NCCOCCOCCCCCCCl (stereo not drawn)
IC50 (SIRT5; enzyme activity, inhibitor): 24 ± 2 nM

Cc1c(C(=O)N[C@H](C(=O)Nc2cccc(C(N)=O)c2)c2ccc(OCc3ccccc3)cc2)cnn1-c1ccccc1
IC50 (Genome polyprotein NS2B-NS3 protease; enzyme activity; with: AMC substrate 50 µM): 16000 nM

O=C(O)Cc1cc2c(cc1C(=O)c1ccc(Cl)cc1Cl)OCO2
IC50 (Gria2; glutamate-evoked current, inhibitor, whole-cell patch clamp; HEK293T, homomeric receptor): 3720 nM

CCCC[C@H](NC(=O)CNC(=O)CNC(=O)[C@H](CCCCNC(=O)[C@H](CCN)NC(=O)C(C)c1ccc(CC(C)C)cc1)NC(=O)CN1CCN(CC(=O)O)CCN(CC(=O)O)CCN(CC(=O)O)CC1)C(=O)N[C@H]1CC(=O)NCCCC[C@@H](C(N)=O)NC(=O)[C@H](Cc2c[nH]c3ccccc23)NC(=O)[C@H](CCCNC(=N)N)NC(=O)[C@@H](Cc2ccccc2)NC(=O)[C@H](Cc2c[nH]cn2)NC1=O (stereo partly drawn)
IC50 (Mc1r; radioligand binding, competitor; B16-F10 mouse melanoma; 2 h, 25 °C, with: radiolabelled NDP-MSH): 0.58 ± 0.06 nM

CCCCCC(=O)Nc1ccc(Nc2ncc(F)c(-c3cc(F)c4nc(C)n(C(C)C)c4c3)n2)cc1
IC50 (CDK4): 2.5 nM

COC(=O)Cc1cc2c(cc1C(=O)c1ccccc1)OCO2
IC50 (Gria2; ion current, patch clamp): 5910 nM

Clc1ccc(CC2CON=C(c3cc(Cl)nnc3Oc3cccc(C4CC4)c3)N2)c(Cl)c1 (stereo not drawn)
IC50 (serine palmitoyltransferase (Botrytis cinerea, UniProt A0A384JAG3+A0A384JQT2)): 5 nM

CC1CN(C(=O)Cn2ncc3cccn3c2=O)CC(C)O1 (stereo not drawn)
IC50 (VKORC1; carboxylation, inhibitor, ELISA; HEK293 stably expressing; 24 h, with: vitamin K epoxide 5 µM): 5510 nM

CC[C@H]1CN(C(c2cccc(C(F)(F)F)c2)c2nc(C(F)(F)F)nn2C)[C@H](CC)CN1c1nc(=O)n(C)c2ccc(C#N)nc12 (stereo partly drawn)
IC50 (DGKA; lipid kinase activity, inhibitor, ADP-Glo): 87 nM

Fc1ccc2nc(NCCCN[C@@H]3CCOc4c(Cl)cc(Cl)cc43)[nH]c2n1
IC50 (MARS2; enzyme activity, inhibitor): 20.5 nM

CC(C(=O)N1CCCC1c1cc2nc3c(c(O)n2n1)CCCC3)n1cncn1 (stereo not drawn)
IC50 (VKORC1; carboxylation, inhibitor, cell-based): 19300 nM

O=C(O)CCNC(=S)NCCCC[C@H](NS(=O)(=O)c1cccc(F)c1)C(=O)N[C@@H](Cc1c[nH]c2ccccc12)C(=O)NC1CCC1
IC50 (SIRT5; inhibitor, fluorogenic; 0 h preincubation, non-tagged enzyme 150 nM, with: NAD+ 500 µM): 74 ± 5 nM

O=C(NO)c1cncc(OS(=O)(=O)Oc2ccc(Oc3ccccc3)cc2)c1
IC50 (HDAC11): 2700 nM

CCCC[C@H](NC(=O)CNC(=O)CNC(C)=O)C(=O)N[C@@H](CS)C(=O)N[C@@H](CS)C(=O)N[C@@H](CCC(=O)O)C(=O)N[C@@H](Cc1c[nH]cn1)C(=O)N[C@H](Cc1ccccc1)C(=O)N[C@@H](CCCNC(=N)N)C(=O)N[C@@H](Cc1c[nH]c2ccccc12)C(=O)N[C@@H](CS)C(N)=O
IC50 (Mc1r; ligand displacement, radioligand): 27.1 nM

CC(C)C[C@H](NC(=O)[C@@H](CCCCNC(=O)CCCCCNC(=O)[C@@H](Cc1ccccc1)NC(=O)CN1CCN(CC(=O)O)CCN(CC(=O)O)CCN(CC(=O)O)CC1)NC(=O)[C@H](Cc1ccc(O)cc1)NC(=O)[C@H](CO)NC(=O)[C@H](Cc1c[nH]c2ccccc12)NC(=O)[C@H](Cc1c[nH]cn1)NC(=O)[C@@H]1CCC(=O)N1)C(=O)N[C@@H](CCCNC(=N)N)C(=O)N1CCC[C@H]1C(=O)NCC(N)=O
IC50 (GNRHR (Homo sapiens, UniProt P30968); ligand displacement, radioligand; pH 7.4, cell membranes): 16.3 nM

COc1ccc(-c2cc(OCC(=O)N(C)Cc3cccnc3C)nc(-n3nc(C)cc3C)n2)cc1
IC50 (LNPEP (Homo sapiens, UniProt Q9UIQ6); 10mer peptide trimming, HPLC; 45 min, 37 °C, with: peptide 30 µM): 34000 nM

O=C1C(Cl)=C(NCCN2CCOCC2)C(=O)c2ncccc21
IC50 (PRMT1 (Homo sapiens, UniProt Q99873); enzyme activity, inhibitor): > 100000 nM

CN1CCc2cc(Br)c(O)cc2C(c2ccc(NC(=O)CCOCCOCCOCCOCCn3cc(COCCOCCOCCOCCOCCC(=O)NCCc4c[nH]cn4)nn3)cc2)C1 (stereo not drawn)
IC50 (DRD1 (Homo sapiens, UniProt P21728); cell-based): 955 nM

Fc1cc2nc(NCCCNCc3cc(Cl)cc(Cl)c3)[nH]c2cc1F
IC50 (MARS2; enzyme activity, inhibitor): 7040 nM

CC(=O)N1CCC2(CC1)C(=O)N(CC(=O)Nc1ccccc1)CN2c1ccccc1
IC50 (DDR2; ligand displacement): > 167000 nM

Fc1ccc(Nc2nc(NC3CCCCC3)c3cc(C(F)(F)F)ccc3n2)cc1F
IC50 (ADRB2 (Homo sapiens, UniProt P07550, V152G); β-arrestin2 recruitment, antagonist, BRET; HEK293; mutant V152G, with: isoprenaline 1 µM): 794 nM

Cc1nc2c(F)cc(-c3nc(Nc4ccc(NC(=O)CCCCCCCC(=O)NO)cc4)ncc3F)cc2n1C(C)C
IC50 (CDK4): 1.2 nM

COc1ccc(Nc2cc(NC3CC3)n3ncc(C#N)c3n2)cc1
IC50 (BLK (Homo sapiens, UniProt P51451); inhibitor): > 10000 nM

Cc1nc2c(F)cc(-c3nc(Nc4ccc(C(=O)NCCCCCCC(=O)NO)cc4)ncc3F)cc2n1C(C)C
IC50 (CDK4): 1.6 nM

CN(CC(F)(F)F)C(=O)CN1CN(c2ccccc2)C2(CCN(C(=O)c3ccc4[nH]ncc4c3)CC2)C1=O
IC50 (DDR2; ligand displacement): 1650 nM

Cc1nc2c(F)cc(-c3nc(Nc4ccc(C(=O)NCCCCCCCC(=O)NO)cc4)ncc3F)cc2n1C(C)C
IC50 (CDK4): 1.6 nM

O=C(Nc1cccc(N2CCNCC2)c1)c1cc(-c2ccccc2)n(-c2ccccc2)n1
IC50 (Genome polyprotein NS2B-NS3 protease; enzyme activity; with: AMC substrate 50 µM): 7900 nM

Cc1nc2c(F)cc(-c3nc(Nc4ccc(CNC(=O)CCCC(=O)NO)cc4)ncc3F)cc2n1C(C)C
IC50 (CDK4): 0.41 nM

O=C(O)Cc1cc2c(cc1C(=O)c1cccc(Br)c1)OCO2
IC50 (Gria2; ion current, patch clamp): 4260 nM

Cc1nc2c(F)cc(-c3nc(Nc4ccc(CNC(=O)CCCCCCC(=O)NO)cc4)ncc3F)cc2n1C(C)C
IC50 (HDAC11; enzyme activity, inhibitor): 6800 nM

O=C(CN1CN(c2ccc(F)cc2)C2(CCN(C(=O)c3cnc4[nH]ncc4c3)CC2)C1=O)NCC(F)(F)F
IC50 (DDR2; ligand displacement): 86600 nM
